Experimental data gathered from unrelated publications.
Each line is one published result; not all experiments were run side by side. ± marks the error that the study gave.
Magi2: Membrane-associated guanylate kinase, WW and PDZ domain-containing protein 2 (Magi2, Mus musculus, UniProt Q9WVQ1)
Chain of UniProt Q9WVQ1 (whole entry, looked up): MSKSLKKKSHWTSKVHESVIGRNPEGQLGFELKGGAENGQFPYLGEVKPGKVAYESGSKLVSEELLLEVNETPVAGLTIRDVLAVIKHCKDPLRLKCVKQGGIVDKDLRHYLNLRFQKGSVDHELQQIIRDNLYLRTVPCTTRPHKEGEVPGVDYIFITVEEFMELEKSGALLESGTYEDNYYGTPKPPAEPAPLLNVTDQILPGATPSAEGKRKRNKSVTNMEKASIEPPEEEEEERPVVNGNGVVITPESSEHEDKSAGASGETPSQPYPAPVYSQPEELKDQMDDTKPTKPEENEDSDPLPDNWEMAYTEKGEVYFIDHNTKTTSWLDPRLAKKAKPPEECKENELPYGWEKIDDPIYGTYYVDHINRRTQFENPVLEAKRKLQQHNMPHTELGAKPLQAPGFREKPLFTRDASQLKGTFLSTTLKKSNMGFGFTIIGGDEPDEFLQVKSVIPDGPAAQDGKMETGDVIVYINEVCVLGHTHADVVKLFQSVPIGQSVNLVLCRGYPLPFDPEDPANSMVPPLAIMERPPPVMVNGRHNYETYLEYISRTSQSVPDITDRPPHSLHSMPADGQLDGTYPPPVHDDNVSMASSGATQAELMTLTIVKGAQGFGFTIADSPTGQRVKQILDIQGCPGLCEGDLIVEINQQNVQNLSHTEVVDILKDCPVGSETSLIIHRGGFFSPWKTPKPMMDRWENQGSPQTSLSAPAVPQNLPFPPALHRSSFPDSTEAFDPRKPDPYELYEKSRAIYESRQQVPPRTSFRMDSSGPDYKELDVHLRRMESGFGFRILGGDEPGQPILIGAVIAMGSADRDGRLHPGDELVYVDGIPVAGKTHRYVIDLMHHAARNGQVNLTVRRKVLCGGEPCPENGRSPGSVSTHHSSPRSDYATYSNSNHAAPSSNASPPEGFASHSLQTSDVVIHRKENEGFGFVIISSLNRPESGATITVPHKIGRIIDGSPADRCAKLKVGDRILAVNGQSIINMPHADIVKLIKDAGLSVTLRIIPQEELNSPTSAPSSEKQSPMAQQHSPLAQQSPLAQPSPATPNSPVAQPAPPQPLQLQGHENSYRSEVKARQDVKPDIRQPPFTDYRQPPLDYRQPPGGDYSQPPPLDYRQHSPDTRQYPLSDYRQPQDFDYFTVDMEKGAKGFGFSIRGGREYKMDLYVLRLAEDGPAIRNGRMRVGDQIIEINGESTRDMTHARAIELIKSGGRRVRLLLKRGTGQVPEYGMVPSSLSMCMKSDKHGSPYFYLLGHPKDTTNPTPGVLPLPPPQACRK
Chymotrypsin-C: Chymotrypsin-C (Homo sapiens, UniProt Q99895)
Chain of UniProt Q99895 (whole entry, unmodified, looked up): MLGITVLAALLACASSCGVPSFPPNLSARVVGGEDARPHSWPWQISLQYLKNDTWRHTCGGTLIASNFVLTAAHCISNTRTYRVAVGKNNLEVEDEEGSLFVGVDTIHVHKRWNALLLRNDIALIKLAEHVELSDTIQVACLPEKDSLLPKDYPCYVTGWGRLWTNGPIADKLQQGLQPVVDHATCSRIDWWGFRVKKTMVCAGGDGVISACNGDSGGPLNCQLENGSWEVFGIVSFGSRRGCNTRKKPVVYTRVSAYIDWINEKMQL
14-3-3 protein epsilon: 14-3-3 protein epsilon (Homo sapiens, UniProt P62258)
Chain of UniProt P62258 (whole entry, looked up): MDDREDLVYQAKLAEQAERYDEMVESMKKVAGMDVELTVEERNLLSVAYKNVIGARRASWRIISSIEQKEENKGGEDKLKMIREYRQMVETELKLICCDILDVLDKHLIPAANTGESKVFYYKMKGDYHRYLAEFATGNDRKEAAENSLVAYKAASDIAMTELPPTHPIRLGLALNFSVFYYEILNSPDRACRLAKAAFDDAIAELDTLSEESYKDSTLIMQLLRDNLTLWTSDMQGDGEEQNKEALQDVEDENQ
Chain of UniProt P45985 (whole entry, looked up): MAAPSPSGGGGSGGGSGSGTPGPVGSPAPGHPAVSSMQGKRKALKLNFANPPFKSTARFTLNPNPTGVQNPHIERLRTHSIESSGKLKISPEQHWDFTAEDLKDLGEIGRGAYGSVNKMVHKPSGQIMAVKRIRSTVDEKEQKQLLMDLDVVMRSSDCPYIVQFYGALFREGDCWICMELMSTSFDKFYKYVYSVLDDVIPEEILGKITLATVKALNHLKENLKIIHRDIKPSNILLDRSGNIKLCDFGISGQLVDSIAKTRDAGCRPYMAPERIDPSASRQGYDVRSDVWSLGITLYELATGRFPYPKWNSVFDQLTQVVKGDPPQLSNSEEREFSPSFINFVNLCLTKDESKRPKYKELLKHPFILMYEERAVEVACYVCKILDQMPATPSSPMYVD
Chain of UniProt Q92692 (whole entry, looked up): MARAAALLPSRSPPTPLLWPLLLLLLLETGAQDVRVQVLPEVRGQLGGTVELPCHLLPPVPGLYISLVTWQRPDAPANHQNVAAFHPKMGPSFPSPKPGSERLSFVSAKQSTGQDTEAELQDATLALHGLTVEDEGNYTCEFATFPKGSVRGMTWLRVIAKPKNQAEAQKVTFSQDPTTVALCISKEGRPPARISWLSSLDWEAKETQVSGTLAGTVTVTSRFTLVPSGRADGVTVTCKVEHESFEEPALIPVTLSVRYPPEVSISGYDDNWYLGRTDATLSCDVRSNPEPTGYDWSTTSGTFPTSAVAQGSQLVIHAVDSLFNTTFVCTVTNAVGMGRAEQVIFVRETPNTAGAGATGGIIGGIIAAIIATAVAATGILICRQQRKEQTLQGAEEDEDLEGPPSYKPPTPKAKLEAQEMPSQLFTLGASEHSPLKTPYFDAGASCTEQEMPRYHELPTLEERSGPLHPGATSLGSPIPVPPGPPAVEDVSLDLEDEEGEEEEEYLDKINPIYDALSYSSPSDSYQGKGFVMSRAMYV
Chain of UniProt Q8RY59 (whole entry, looked up): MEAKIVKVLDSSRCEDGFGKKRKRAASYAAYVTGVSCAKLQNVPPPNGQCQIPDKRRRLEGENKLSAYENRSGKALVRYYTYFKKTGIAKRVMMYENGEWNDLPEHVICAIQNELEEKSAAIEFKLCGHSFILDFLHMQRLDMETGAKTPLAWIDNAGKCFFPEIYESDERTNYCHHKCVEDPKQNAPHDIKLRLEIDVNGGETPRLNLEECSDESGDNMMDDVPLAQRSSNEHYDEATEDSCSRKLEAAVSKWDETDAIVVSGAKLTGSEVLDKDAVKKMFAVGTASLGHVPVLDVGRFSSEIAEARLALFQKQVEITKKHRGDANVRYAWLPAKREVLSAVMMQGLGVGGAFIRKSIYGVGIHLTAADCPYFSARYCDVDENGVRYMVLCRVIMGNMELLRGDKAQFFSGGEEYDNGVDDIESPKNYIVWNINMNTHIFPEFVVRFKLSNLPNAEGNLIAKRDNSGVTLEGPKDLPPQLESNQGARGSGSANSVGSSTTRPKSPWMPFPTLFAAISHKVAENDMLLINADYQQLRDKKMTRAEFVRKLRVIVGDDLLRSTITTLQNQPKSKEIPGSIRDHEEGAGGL
Chain of UniProt Q08460 (whole entry, looked up): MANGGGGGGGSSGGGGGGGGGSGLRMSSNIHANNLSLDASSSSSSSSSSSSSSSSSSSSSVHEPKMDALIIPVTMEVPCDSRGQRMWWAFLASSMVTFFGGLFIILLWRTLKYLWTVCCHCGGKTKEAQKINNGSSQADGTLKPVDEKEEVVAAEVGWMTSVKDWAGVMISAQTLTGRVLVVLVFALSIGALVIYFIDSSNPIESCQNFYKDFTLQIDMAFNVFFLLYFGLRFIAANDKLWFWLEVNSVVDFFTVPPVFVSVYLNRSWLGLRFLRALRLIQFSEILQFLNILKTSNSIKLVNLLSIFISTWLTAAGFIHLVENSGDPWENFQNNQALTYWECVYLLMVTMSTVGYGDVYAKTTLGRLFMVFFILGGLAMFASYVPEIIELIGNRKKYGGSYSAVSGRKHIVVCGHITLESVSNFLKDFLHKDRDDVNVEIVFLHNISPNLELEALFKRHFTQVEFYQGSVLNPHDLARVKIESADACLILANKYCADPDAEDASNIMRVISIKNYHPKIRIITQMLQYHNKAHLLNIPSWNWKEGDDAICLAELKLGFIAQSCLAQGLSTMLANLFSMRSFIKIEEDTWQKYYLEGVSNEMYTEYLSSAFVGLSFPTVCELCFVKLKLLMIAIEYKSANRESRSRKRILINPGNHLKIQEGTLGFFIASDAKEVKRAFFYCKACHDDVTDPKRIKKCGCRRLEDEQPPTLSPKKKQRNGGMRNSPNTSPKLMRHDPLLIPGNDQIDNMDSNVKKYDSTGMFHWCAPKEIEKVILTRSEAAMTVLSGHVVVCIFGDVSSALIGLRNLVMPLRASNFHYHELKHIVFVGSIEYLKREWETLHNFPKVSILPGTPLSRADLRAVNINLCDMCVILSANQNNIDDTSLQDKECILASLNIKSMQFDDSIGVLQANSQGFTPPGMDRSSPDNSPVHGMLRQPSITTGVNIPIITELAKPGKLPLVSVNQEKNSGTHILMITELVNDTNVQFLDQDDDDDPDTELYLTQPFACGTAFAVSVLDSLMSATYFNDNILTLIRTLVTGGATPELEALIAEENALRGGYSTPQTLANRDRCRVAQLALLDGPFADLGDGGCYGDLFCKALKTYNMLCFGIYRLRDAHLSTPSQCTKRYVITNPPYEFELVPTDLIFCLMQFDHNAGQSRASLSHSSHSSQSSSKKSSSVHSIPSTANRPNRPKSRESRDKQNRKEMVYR
Chain of UniProt O95619 (whole entry, looked up): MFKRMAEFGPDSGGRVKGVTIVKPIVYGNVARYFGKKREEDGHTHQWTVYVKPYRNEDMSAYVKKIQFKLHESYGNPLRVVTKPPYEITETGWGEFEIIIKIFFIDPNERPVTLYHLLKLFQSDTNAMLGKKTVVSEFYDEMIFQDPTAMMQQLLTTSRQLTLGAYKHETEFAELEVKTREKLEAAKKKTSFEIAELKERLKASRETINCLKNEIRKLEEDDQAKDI

SMILES | target | test | test system | setting | Kd [nM]
C[C@H](NC(=O)[C@H](Cc1c[nH]c2ccccc12)NC(=O)[C@H](CO)NC(=O)[C@H](Cc1ccc(O)cc1)NC(=O)[C@@H](N)CC(=O)O)C(=O)N[C@@H](CCC(=O)O)C(=O)N[C@@H](CCC(=O)O)C(=O)N[C@@H](CCC(=O)O)C(=O)N[C@@H](CCC(=O)O)C(=O)N[C@@H](CCC(=O)O)C(=O)N[C@@H](CCC(=O)O)C(=O)N[C@@H](CC(=O)O)C(=O)N[C@@H](CCC(=O)O)C(=O)N[C@@H](CCC(=O)O)C(=O)O | Histone H2B 1.1/Histone H2A type 1 (Xenopus laevis, UniProt P02281+P06897) | binding, intrinsic tryptophan fluorescence |  | pH 7.6, 20 °C, together with: H2A/H2B | 300 ± 100
CC[C@H](C)[C@@H]1NC(=O)[C@@H]2CCCN2C(=O)[C@H](Cc2c[nH]c3ccccc23)NC(=O)[C@H](CO)NC(=O)[C@H](Cc2c[nH]c3ccccc23)NC(=O)[C@H](CC(N)=O)NC(=O)[C@H](CCCCN)NC(=O)[C@H](CCSC)NC(=O)[C@@H]2CSCCC(=O)N3CN(CN(C3)C(=O)CCSC[C@H](NC(=O)[C@H](C)N)C(=O)N3CCC[C@H]3C(=O)N[C@@H](Cc3ccccc3)C(=O)NCC(=O)N2)C(=O)CCSC[C@@H](C(=O)N[C@H](C(=O)N[C@@H](CC(N)=O)C(=O)N[C@@H](CCCCN)C(=O)N(C)CC(=O)N(C)CC(=O)N(C)CC(=O)N(C)CC(=O)N(C)CC(=O)N(C)CC(=O)N[C@@H](CCCCNC(=O)c2ccc(C(=O)O)c(-c3c4ccc(=O)cc-4oc4cc(O)ccc34)c2)C(N)=O)[C@@H](C)O)NC(=O)[C@H](Cc2c[nH]c3ccccc23)NC1=O | Nectin-2 (NECTIN2, Homo sapiens, UniProt Q92692) | fluorescence polarization |  |  | > 2000
CC(=O)NCCCC[C@H](NC(=O)CNC(=O)CNC(=O)[C@@H](NC(=O)[C@H](CO)NC(=O)[C@H](CCCCN)NC(=O)[C@H](CCCNC(=N)N)NC(=O)[C@H](C)NC(=O)[C@@H](NC(=O)[C@H](CCC(N)=O)NC(=O)[C@H](CCCCN)NC(=O)[C@@H](NC(=O)[C@@H](N)CCCNC(=N)N)[C@@H](C)O)[C@@H](C)O)[C@@H](C)O)C(=O)N[C@@H](C)C(=O)N1CCC[C@H]1C(=O)N[C@@H](CCCNC(=N)N)C(=O)N[C@@H](CCCCN)C(=O)N[C@@H](CCC(N)=O)C(=O)O | YEATS domain-containing protein 4, YEATS domain (Homo sapiens, UniProt O95619) | isothermal titration calorimetry |  | pH 7.6, 25 °C, together with: histone peptide | 120000 ± 5500
CC(C)C[C@H](NC(=O)[C@H](CO)NC(=O)[C@@H]1CCCN1C(=O)[C@H](CCC(N)=O)NC(=O)[C@@H](NC(=O)[C@H](C)NC(=O)[C@H](CCCCN)NC(=O)[C@H](CC(C)C)NC(=O)[C@H](Cc1ccc(O)cc1)NC(=O)[C@H](COP(=O)(O)O)NC(=O)[C@@H]1CCCN1C(=O)[C@H](CCCNC(=N)N)NC(=O)[C@H](CCCNC(=N)N)NC(=O)[C@H](C)NC(=O)[C@H](C)N)[C@@H](C)O)C(=O)O | Magi2 | ITC |  | pH 8.0, 25 °C, together with: tandem peptide | 70
CSCC[C@@H]1NC(=O)[C@H](C)NC(=O)[C@H](CO)NC(=O)[C@H](CCCCN)NC(=O)CNC(=O)[C@H](CC(=O)O)NC(=O)[C@H](CO)NC(=O)CNC(=O)[C@@H]2CSSC[C@H](NC(=O)[C@@H](NC(=O)[C@@H](NC(=O)[C@H](CCC(=O)O)NC(=O)[C@H](CO)NC(=O)CN)C(C)C)[C@@H](C)O)C(=O)N[C@@H](CCC(=O)O)C(=O)N3CCC[C@H]3C(=O)NCC(=O)N[C@@H]([C@@H](C)O)C(=O)N[C@@H]([C@@H](C)O)C(=O)N[C@@H](Cc3ccccc3)C(=O)N[C@@H](CCCCN)C(=O)N[C@@H](CC(=O)O)C(=O)N[C@@H](CCCCN)C(=O)N[C@H]3CSSC[C@@H](C(=O)N[C@@H](Cc4c[nH]c5ccccc45)C(=O)N[C@@H](CCC(N)=O)C(=O)O)NC(=O)[C@H](CC(C)C)NC(=O)[C@H](CCSC)NC(=O)[C@H](CC(C)C)NC(=O)[C@H](CO)NC(=O)[C@H](CSSC[C@H](NC(=O)[C@H]([C@@H](C)O)NC(=O)[C@H](CC(N)=O)NC3=O)C(=O)N[C@@H](CCCNC(=N)N)C(=O)N2)NC1=O | Chymotrypsin-C | cell-free assay, FP |  | pH 8 | 0.15
CC(=O)N[C@@H](CCCNC(=N)N)C(=O)N[C@H](C(=O)N[C@@H](CCCCN)C(=O)N[C@@H](CO)C(=O)N[C@@H](CCCNC(=N)N)C(=O)N[C@H](C(=O)N[C@@H](Cc1c[nH]c2ccccc12)C(=O)N[C@@H](C)C(=O)N[C@@H](Cc1c[nH]c2ccccc12)C(N)=O)[C@@H](C)OP(=O)(O)O)[C@@H](C)O | 14-3-3 protein epsilon | binding, SPR |  | pH 7.4 | 76.2
O=C(N[C@@H]1c2ccccc2C[C@H]1N1CCCC1)c1ccc(-c2ccnc3[nH]ccc23)nc1 | MAP2K4 (Homo sapiens, UniProt P45985) | binding, competition with immobilised ligand |  |  | 2700
CC(C)C[C@H](NC(=O)[C@H](CO)NC(=O)[C@@H]1CCCN1C(=O)[C@H](CCC(N)=O)NC(=O)[C@@H](NC(=O)[C@H](C)NC(=O)[C@H](CCCCN)NC(=O)[C@H](C)NC(=O)[C@H](Cc1ccc(O)cc1)NC(=O)[C@H](COP(=O)(O)O)NC(=O)[C@H](CCC(=O)O)NC(=O)[C@H](CCCNC(=N)N)NC(=O)[C@H](CCCNC(=N)N)NC(=O)[C@H](C)NC(=O)[C@H](C)N)[C@@H](C)O)C(=O)O | Magi2 | ITC |  | pH 8.0, 25 °C, together with: tandem peptide | 30 ± 10
CSCC[C@@H]1NC(=O)[C@H](CC(C)C)NC(=O)[C@H](Cc2c[nH]c3ccccc23)NC(=O)[C@@H]2CSSC[C@@H]3NC(=O)[C@H]([C@@H](C)O)NC(=O)[C@H](CC(N)=O)NC(=O)[C@H](CSSC[C@@H](C(=O)N[C@@H](CC(=O)O)C(=O)N[C@@H](CCC(N)=O)C(=O)O)NC(=O)[C@H](CC(C)C)NC1=O)NC(=O)[C@H](CCCCN)NC(=O)[C@H](CC(=O)O)NC(=O)[C@H](CCCCN)NC(=O)[C@H](Cc1ccccc1)NC(=O)[C@H]([C@@H](C)O)NC(=O)[C@H]([C@@H](C)O)NC(=O)CNC(=O)[C@@H]1CCCN1C(=O)[C@H](CCC(=O)O)NC(=O)[C@@H](NC(=O)[C@@H](NC(=O)[C@@H](NC(=O)[C@H](CCC(=O)O)NC(=O)[C@H](CO)NC(=O)CN)C(C)C)[C@@H](C)O)CSSC[C@H](NC(=O)[C@H](CCCNC(=N)N)NC3=O)C(=O)NCC(=O)N[C@@H](CO)C(=O)N[C@@H](CC(=O)O)C(=O)NCC(=O)N[C@@H](CCCCN)C(=O)N[C@@H](CO)C(=O)N[C@@H](C)C(=O)N[C@@H](C)C(=O)N2 | Chymotrypsin-C (Homo sapiens, UniProt Q99895, S216A) | competitive fluorescence polarization |  | 24 h, pH 8.0, together with: FITC-labelled tracer | 12.1 ± 2.32
CC[C@@H](C)[C@@H](NC(=O)[C@@H](CCC(N)=O)NC(=O)[C@H](NC(=O)[C@H]1CCCN1C(=O)[C@H](NC(=O)[C@@H](CO)NC(=O)[C@@H](Cc1ccccc1)NC(=O)[C@H]1CCCN1C(=O)[C@@H](CCC(N)=O)NC(=O)[C@H](N)CCSC)[C@H](C)CC)C(C)C)C(=O)N[C@@H](C(=O)N[C@H](CC(C)C)C(=O)N[C@H](CCC(N)=O)C(=O)NCC(=O)N[C@H](CO)C(=O)N[C@H](CCCNC(=N)N)C(=O)N[C@H](CCCNC(=N)N)C(=O)N[C@H](CCCNC(=N)N)C(=O)N[C@H](CCC(N)=O)C(=O)NCC(=O)N[C@H](CCCNC(=N)N)C(N)=O)[C@H](C)O | Kcnma1 (Mus musculus, UniProt Q08460) | BK current, blocker, inside-out patch | Xenopus oocytes | pH 7.0, 22 °C, 0 mV, together with: 1 µM peptide | 5200
CC(=O)N[C@@H](CCCNC(=N)N)C(=O)N[C@H](C(=O)N[C@@H](CCCCN)C(=O)N[C@@H](CO)C(=O)N[C@@H](CCCNC(=N)N)C(=O)N[C@H](C(=O)N[C@@H](Cc1c[nH]c2ccccc12)C(=O)N[C@@H](C)C(=O)N[C@@H](Cc1ccc(O)cc1)C(N)=O)[C@@H](C)OP(=O)(O)O)[C@@H](C)O | 14-3-3 protein epsilon | binding, SPR |  | pH 7.4 | 93.1
CC(=O)NCC(=O)N[C@@H](Cc1ccc(O)cc1)C(=O)NCC(=O)N[C@@H](CO)C(=O)N[C@@H](CO)C(=O)N[C@@H](CO)C(=O)N[C@@H](CCCNC(=N)N)C(=O)N[C@@H](CCCNC(=N)N)C(=O)N[C@@H](C)C(=O)N1CCC[C@H]1C(=O)N[C@@H](CCC(N)=O)C(=O)N[C@H](C(=O)O)[C@@H](C)O | IGF1R (Homo sapiens, UniProt P08069) | binding, MST |  |  | 296
CC(C)C[C@@H]1NC(=O)[C@H](CC(C)C)NC(=O)[C@H](CC(C)C)NC(=O)[C@H](Cc2c[nH]c3ccccc23)NC(=O)[C@@H]2CSSC[C@@H]3NC(=O)[C@H]([C@@H](C)O)NC(=O)[C@H](CC(N)=O)NC(=O)[C@H](CSSC[C@@H](C(=O)N[C@@H](CC(=O)O)C(=O)N[C@@H](CCC(N)=O)C(=O)O)NC1=O)NC(=O)[C@H](CCCCN)NC(=O)[C@H](CC(=O)O)NC(=O)[C@H](CCCCN)NC(=O)[C@H](Cc1ccccc1)NC(=O)[C@H]([C@@H](C)O)NC(=O)[C@H]([C@@H](C)O)NC(=O)CNC(=O)[C@@H]1CCCN1C(=O)[C@H](CCC(=O)O)NC(=O)[C@@H](NC(=O)[C@@H](NC(=O)[C@@H](NC(=O)[C@H](CCC(=O)O)NC(=O)[C@H](CO)NC(=O)CN)C(C)C)[C@@H](C)O)CSSC[C@H](NC(=O)[C@H](CCCNC(=N)N)NC3=O)C(=O)NCC(=O)N[C@@H](CO)C(=O)N[C@@H](CC(=O)O)C(=O)NCC(=O)N[C@@H](CCCCN)C(=O)N[C@@H](CO)C(=O)N[C@@H](C)C(=O)N[C@@H](Cc1c[nH]c3ccccc13)C(=O)N2 | Chymotrypsin-C | cell-free assay, FP |  | pH 8 | 31.5
CC[C@H](C)[C@H](NC(=O)[C@H](CCC(=O)O)NC(=O)[C@H](CC(C)C)NC(=O)[C@H](Cc1ccc(O)cc1)NC(=O)[C@H](CCSC)NC(=O)[C@H](CC(=O)O)NC(=O)[C@H](CCC(=O)O)NC(=O)[C@H](CCC(=O)O)NC(=O)[C@H](CC(C)C)NC(=O)[C@@H](N)CC(N)=O)C(=O)N[C@@H](CC(N)=O)C(=O)N[C@@H](CC(=O)O)C(=O)N[C@@H](CC(C)C)C(=O)N[C@@H](CCSC)C(=O)N[C@@H](CCC(=O)O)C(=O)N1CCC[C@H]1C(=O)N[C@@H](CCC(=O)O)C(=O)N1CCC[C@H]1C(=O)N[C@@H](CCC(=O)O)C(=O)N1CCC[C@H]1C(=O)N[C@H](C(=O)O)[C@@H](C)O | RCD1 (Arabidopsis thaliana, UniProt Q8RY59) | ITC |  | salt 0 mM | 22.7

A few entries again:
SMILES | target | test | test system | setting | Kd [nM]
O=C(N[C@@H]1c2ccccc2C[C@H]1N1CCCC1)c1ccc(-c2ccnc3[nH]ccc23)nc1 | MAP2K4 (Homo sapiens, UniProt P45985) | binding, competition with immobilised ligand |  |  | 2700
CC(C)C[C@H](NC(=O)[C@H](CO)NC(=O)[C@@H]1CCCN1C(=O)[C@H](CCC(N)=O)NC(=O)[C@@H](NC(=O)[C@H](C)NC(=O)[C@H](CCCCN)NC(=O)[C@H](C)NC(=O)[C@H](Cc1ccc(O)cc1)NC(=O)[C@H](COP(=O)(O)O)NC(=O)[C@H](CCC(=O)O)NC(=O)[C@H](CCCNC(=N)N)NC(=O)[C@H](CCCNC(=N)N)NC(=O)[C@H](C)NC(=O)[C@H](C)N)[C@@H](C)O)C(=O)O | Magi2 | ITC |  | pH 8.0, 25 °C, together with: tandem peptide | 30 ± 10
